Experimental data gathered from unrelated publications.
Each numbered part is a random draw from the data of one study; scales do not carry over between parts. Positions count from the first letter of the parent shown.

Series 1
Target: Centromere-binding protein 1, full length, His-tagged (CBF1, Saccharomyces cerevisiae, UniProt P17106, residues 1-351)
Sequence of UniProt P17106 (whole entry, looked up): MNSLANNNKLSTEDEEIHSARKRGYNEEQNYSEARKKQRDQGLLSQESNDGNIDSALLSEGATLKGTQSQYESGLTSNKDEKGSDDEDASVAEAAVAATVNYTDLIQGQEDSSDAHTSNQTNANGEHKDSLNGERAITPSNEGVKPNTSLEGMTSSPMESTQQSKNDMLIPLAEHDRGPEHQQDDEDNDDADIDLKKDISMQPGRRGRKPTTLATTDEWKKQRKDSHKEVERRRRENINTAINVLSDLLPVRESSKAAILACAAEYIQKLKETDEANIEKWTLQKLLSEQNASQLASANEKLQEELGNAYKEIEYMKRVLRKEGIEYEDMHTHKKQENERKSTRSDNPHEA
Technique: competition protein-binding microarray
Form: double-stranded DNA, one strand shown
Sample: in vitro
Tested at: 2 µM
Setting: whole 60-bp probe, lowest competitor level
Together with: Pho4 competitor, 0.05 µM
Direction: higher = stronger binding
Strand	fluorescence intensity
TGCGCAACAACTTTTCACGTGTTTTTATGTCTAGAAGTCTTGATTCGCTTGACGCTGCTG	1270 a.u.
TGGAGCTGTTGCGACCTTATTAGAACACCAACACTTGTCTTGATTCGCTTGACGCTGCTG	67.9 a.u.
TAAATAATGGTTTTTCACGTGCATCGAGTCCGTACTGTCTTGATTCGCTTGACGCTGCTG	917 a.u.
ATAACCGAAATGGGACACGTGCTGAAGCGGGGCAGAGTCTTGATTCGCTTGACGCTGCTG	1500 a.u.
TCTTTGAAGGTGCGTCATGCTCACTGTTGAACTCTAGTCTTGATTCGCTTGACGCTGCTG	60 a.u.
CCAGTGCTGCCCCGCCACATGCAATCGGGCCGTCGGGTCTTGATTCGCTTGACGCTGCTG	66 a.u.
CGGGGTTAAGTTTTTCACGTGGTCTGCTTGCAGCAGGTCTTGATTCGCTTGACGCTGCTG	1050 a.u.
AAAGAGACACAAAACTACGTGGGACAAGCTTGGGGTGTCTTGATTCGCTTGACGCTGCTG	58.9 a.u.

Series 2
Target: ABI1, truncated, D143A, DHFR fusion (Arabidopsis thaliana)
Technique: DHFR PCA, deep sequencing
Sample: yeast
Setting: methotrexate growth selection, single substitutions
Together with: (+)-ABA 0 µM
Relative to: wild-type fitted maximum
Direction: higher = stronger binding
Starting sequence: PYL1, truncated, DHFR fusion (Arabidopsis thaliana); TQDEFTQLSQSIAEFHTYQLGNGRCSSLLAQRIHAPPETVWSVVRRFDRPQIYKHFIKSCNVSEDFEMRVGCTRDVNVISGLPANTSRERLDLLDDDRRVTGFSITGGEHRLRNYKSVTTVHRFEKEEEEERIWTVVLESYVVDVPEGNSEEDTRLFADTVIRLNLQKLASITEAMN; partner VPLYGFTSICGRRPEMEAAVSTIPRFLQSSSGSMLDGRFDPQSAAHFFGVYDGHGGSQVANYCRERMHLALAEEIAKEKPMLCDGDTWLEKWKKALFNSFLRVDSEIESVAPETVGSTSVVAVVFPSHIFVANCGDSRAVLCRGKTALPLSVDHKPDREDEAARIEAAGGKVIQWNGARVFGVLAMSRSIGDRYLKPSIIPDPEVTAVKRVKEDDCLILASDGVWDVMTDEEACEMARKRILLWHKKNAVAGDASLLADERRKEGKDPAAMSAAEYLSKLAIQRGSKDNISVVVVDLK
Variant	relative binding score
K168V	-7.14%
K126N	42.5%
P37L	1.47%
E151K	28.2%
Q19G	4.72%

Series 3
Target: CCND2, cyclin fold, Cln2 fusion (human)
Technique: yeast growth competition, sequencing
Sample: yeast
Setting: weak parent motif
Relative to: not given
Direction: higher = stronger binding
Starting sequence: RBL2 docking peptide (human); STTRRRLFVENDS; partner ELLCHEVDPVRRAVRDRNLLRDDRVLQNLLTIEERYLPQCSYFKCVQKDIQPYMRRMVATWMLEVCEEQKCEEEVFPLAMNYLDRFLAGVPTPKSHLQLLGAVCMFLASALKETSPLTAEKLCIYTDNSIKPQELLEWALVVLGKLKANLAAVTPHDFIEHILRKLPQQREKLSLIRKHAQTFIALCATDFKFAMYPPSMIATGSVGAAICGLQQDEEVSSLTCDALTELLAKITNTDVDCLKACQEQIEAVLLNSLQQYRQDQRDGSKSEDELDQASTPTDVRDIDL
Variant	normalised enrichment score
R4Y	0.738
T2M	0.416
V9F	0.434
F8G	0.0929
S13C	-0.074
T2Y	0.221
E10I	-0.234

Mixed results
Substance	target	test	test system	setting	scale	endpoint	value
PhoQ, residues 284 288 289 292 302 303 ALSMDL	PhoP, residues 12 14 15 18 19 YHFSH (Escherichia coli, UniProt P23836)	Sort-seq, measured: YFP reporter	E. coli	PhoQ-PhoP variant library, together with: 10 µM Mg2+	relative to: high Mg2+ state, higher = stronger signaling	fold induction	14.4

Some of these lines once more (series 3):
Variant	normalised enrichment score
F8G	0.0929
V9F	0.434
T2Y	0.221
